Measured values from different studies.
Protocols differ between the studies behind these lines. ± marks the error that the study gave.

CC(C)Cc1ccc(C(C)C(=O)N/N=C/c2ccc(OCC(=O)N/N=C/c3c(O)ccc4ccccc34)cc2)cc1 (stereo not shown)  viability (HEK293; MTT; 150 µM, 48 h): 25.5%
COc1ccc([C@@H]2CC(=O)c3c(O)cc(O[C@@H]4O[C@H](CO[C@@H]5O[C@@H](C)[C@H](O)[C@@H](O)[C@H]5O)[C@@H](O[C@H]5O[C@H](CO)[C@@H](O)[C@H](O)[C@H]5O)[C@H](O)[C@H]4O)cc3O2)cc1O  viability (MRC5; cell growth or viability, MTS; 150 µg/mL, 72 h): 49.8%
COc1cc(C=CC(=O)CC(=O)C=Cc2ccc(OCC(=O)O)c(OC)c2)ccc1O  viability (SH-SY5Y; MTT; 0.9 µM, 24 h): 96.1 ± 5.4%
CC(C)Cc1ccc(C(C)C(=O)N/N=C/c2ccc(OCC(=O)N/N=C/c3cccc(O)c3)cc2)cc1 (stereo not shown)  viability (HEK293; MTT; 150 µM, 48 h): 47.6%
COc1cc(C=CC(=O)CC(=O)C=Cc2ccc(OCC(=O)NCCOCCOCCOCCOCCOCCOCCOCC(F)(F)F)c(OC)c2)ccc1O  viability (SH-SY5Y; MTT; 0.9 µM, 24 h): 94.7 ± 6.7%
CC(C)Cc1ccc(C(C)C(=O)N/N=C/c2ccc(OCC(=O)N/N=C/c3ccc([N+](=O)[O-])cc3)cc2)cc1 (stereo not shown)  viability (HEK293; MTT; 40 µM, 48 h): 48.5%
O=S(=O)(O)CC1CSSCC(CS(=O)(=O)O)SS1 (stereo not shown)  viability (OECM1; 254 µM, 4 d): 32.5%
N=C(N)NCCC[C@@H]1NC(=O)[C@H](CCCNC(=N)N)NC(=O)[C@H](CCCNC(=N)N)NC(=O)[C@H](Cc2c[nH]c3ccccc23)NC(=O)[C@H](Cc2c[nH]c3ccccc23)NC(=O)[C@H](Cc2c[nH]c3ccccc23)NC(=O)[C@H](Cc2c[nH]c3ccccc23)NC(=O)[C@H](CCCNC(=N)N)NC1=O  viability (HEK293T; MTS; 50 µM, 24 h): ~60%
CCCCCCCCCCN1C(=O)/C(=N\NC(=N)N)c2cc(C)ccc21  viability (BJ normal fibroblasts; MTT; up to 2 µg/mL, 24 h): > 80%
CC(C)CCC[C@@H](C)[C@H]1CC[C@@H]([C@@H]2CC[C@H]3C[C@H](O)CC[C@]3(C)C2=O)[C@]1(C)CC(=O)NCC(=O)O  viability (HEK293T; CellTiter-Blue; 10 µM): > 100%
Cc1cc(C)cc(C(=O)Nc2cccc(S(N)(=O)=O)c2)c1  viability (HEK293T; MTT; serum-free medium; 100 µM, 24 to 48 h; baseline: untreated): 86 ± 0.3%
CC(C)Cc1ccc(C(C)C(=O)NN=Cc2ccc(OCC(=O)NN=Cc3cccc([N+](=O)[O-])c3)cc2)cc1 (stereo not shown)  viability (HEK293; MTT; 40 µM, 48 h): 102%
CC(C)CCC[C@@H](C)[C@H]1CCC([C@@H]2CC[C@H]3C[C@H](O)CC[C@]3(C)[C@@H]2O)[C@]1(C)CC(=O)O (stereo partly shown)  viability (HEK293T; CellTiter-Blue; concentration not given): 27.2%

A few entries again:
CCCCCCCCCCN1C(=O)/C(=N\NC(=N)N)c2cc(C)ccc21  viability (BJ normal fibroblasts; MTT; up to 2 µg/mL, 24 h): > 80%
